Experimental data from different studies.
Parts stem from different laboratories: compare values within a part only.

Series 1
Target: PABPC1L2, full length, GST fusion (mouse, UniProt A0ABA7IW68)
Method: RNAcompete
Molecule type: RNA
Sample: in vitro
Tested at: 20 nM
Notes: 7-mer, probes averaged, single round
Reference: mean of 7-mers
Reading: higher = stronger binding
Measurement: 7-mer Z-score
Target sequence (chain): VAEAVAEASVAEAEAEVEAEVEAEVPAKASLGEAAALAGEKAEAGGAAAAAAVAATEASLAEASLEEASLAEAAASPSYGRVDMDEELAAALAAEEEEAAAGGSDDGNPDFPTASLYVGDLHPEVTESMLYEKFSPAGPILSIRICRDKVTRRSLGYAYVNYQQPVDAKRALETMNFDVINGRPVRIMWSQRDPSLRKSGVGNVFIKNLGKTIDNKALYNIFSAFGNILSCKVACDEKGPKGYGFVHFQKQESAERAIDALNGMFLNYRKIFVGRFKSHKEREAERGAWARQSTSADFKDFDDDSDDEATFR
UUCCGUC: -0.492
GACCCUC: -0.32
GUCGAGG: 0.046
GCGGGUG: 0.274
GUAAGCU: -0.264
CUCGCGC: -0.407
ACCGGUU: -0.273
AUGACGC: -0.124
UACGCUC: -0.168
GCUGAAA: 0.765
GAUGCUG: -0.209
CCUGCGU: -0.26
CGUUUCA: -0.443
UGUAUGA: -0.213
CCGAGGU: -0.229
UUUGACU: -0.275
AAGCACC: -0.0101
ACGAAAU: 0.372
GCGUCCG: -0.0446
UCUUAGA: -0.202
GAUGGCA: -0.0917
UCACACU: -0.153
CCCCUUU: -0.302
AAAUGCA: 1.16
ACAAUUU: 0.138

Series 2
Target: Ras GTPase-activating protein-binding protein 1, C-terminal RGG region (G3BP1, Homo sapiens, UniProt Q13283)
Chain of UniProt Q13283 (whole entry, looked up): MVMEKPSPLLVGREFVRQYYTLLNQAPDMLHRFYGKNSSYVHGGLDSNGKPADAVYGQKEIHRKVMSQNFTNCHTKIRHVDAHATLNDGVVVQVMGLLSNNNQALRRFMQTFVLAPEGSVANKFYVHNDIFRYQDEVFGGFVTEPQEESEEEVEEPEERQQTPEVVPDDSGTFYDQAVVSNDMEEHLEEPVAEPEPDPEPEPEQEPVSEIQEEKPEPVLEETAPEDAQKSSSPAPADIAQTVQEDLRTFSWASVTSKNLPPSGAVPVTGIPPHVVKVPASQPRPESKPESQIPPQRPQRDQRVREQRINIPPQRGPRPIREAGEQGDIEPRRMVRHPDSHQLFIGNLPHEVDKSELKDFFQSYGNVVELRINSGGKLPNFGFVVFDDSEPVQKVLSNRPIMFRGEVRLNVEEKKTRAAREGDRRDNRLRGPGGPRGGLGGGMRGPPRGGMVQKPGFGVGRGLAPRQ
Method: RNA Bind-n-Seq
Molecule type: RNA
Sample: in vitro
Tested at: 1 µM
Notes: whole 134-nt RNA, ends assumed
Added: 150 mM KCl
Reference: input library
Reading: higher = stronger binding
Measurement: log2 enrichment
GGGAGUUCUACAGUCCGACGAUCAGUCCUGUGCUACACAUCGUAUGUACCGAAUCGGGAGGGUUUUUGGGAAAAAAAGGGAAAGUAUUAUGUUACGCCGUUCGGAUCUGCACUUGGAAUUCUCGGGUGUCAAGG: -0.499
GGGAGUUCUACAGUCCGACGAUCGCAGGAAGUAAAAACAAAUGGAAAUGCUUCGGAUAGUGGCAGGGGUGCGGGUUGCUAAGGAAAGGGUGGGAUGGGAGUGGGUAAAGAGUUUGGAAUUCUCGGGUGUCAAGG: 0.69
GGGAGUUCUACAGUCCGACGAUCUAACUUUAGAGGAGGAUCUGAUGGAUAUGGCAGUGGACGUGGAUUUGGGGAUGGCUCUAAUGGGUAUGGAGGAGGACCUGGAGGUGGCAAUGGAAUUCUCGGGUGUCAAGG: -1.23
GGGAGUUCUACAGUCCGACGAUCACCAUGCAGGUGGGCAUCUUUGGGAAGUGGGGCAAGGGGGGGAUAGGGAGGGGGGUAACGCUUUGGGAACAGGUGGUCCCAGGUCGUUUCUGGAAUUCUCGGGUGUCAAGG: 2.34
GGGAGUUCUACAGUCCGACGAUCCCUCAAGUCCUGUGCUACACAUCGUAUGUACCGAAUCGGUUUGGAGGUUUGGAAAGUAUUAUGUUACGCCGUUCGGAUCUGCACUUCCAGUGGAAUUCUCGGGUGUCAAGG: -0.747
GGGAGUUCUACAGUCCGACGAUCCCUGUGCUACACAUCGUAUGUACCGAAUCGGGGUUUUUUUGGUUUUUUUGGUUUUUUUGGGAAAGUAUUAUGUUACGCCGUUCGGAUCUGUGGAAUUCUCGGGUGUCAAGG: -1.7
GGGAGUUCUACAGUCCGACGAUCUGGCCCUGGUGGCAUGCGGGGAGGAAGAGGUGGCCUCAUGGAUCGUGGUGGUCCCGGUGGAUUGUUCAGAGGUGGCCGUGGUGGAGACAGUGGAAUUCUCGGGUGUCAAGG: 2.33
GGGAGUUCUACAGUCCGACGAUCAGUCCUGUGCUACACAUCGUAUGUACCGAAUCGGCCCCCGGCCCCCGGGCCCCCGGGAAAGUAUUAUGUUACGCCGUUCGGAUCUGCACUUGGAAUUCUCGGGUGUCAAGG: -1.74
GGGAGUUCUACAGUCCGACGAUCCUCAAGUCCUGUGCUACACAUCGUAUGUACCGAAUCGGGUGGGUGGGAAAGGGAAAGUAUUAUGUUACGCCGUUCGGAUCUGCACUUCCAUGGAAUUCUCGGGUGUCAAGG: 1.62
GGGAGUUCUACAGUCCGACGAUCAGUCCUGUGCUACACAUCGUAUGUACCGAAUCGGGCCCCGGGCCCCGGGGCCCCGGGGAAAGUAUUAUGUUACGCCGUUCGGAUCUGCACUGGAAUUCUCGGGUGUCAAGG: -2.12

Series 3
Target: Sal-like protein 4, full length isoform B (SALL4, Homo sapiens, UniProt Q9UJQ4-2, residues 1-616)
Method: universal PBM
Molecule type: double-stranded DNA, one strand shown
Sample: in vitro
Tested at: not given
Notes: 8-mer, flanks averaged, mean of replicates
Reading: higher = stronger binding
Measurement: E-score
CCCTGACA: -0.0751
CGCAGTTA: 0.0374
AGCTACCG: -0.225
GAACAGGC: -0.117
TCTTCACA: 0.128
AATCGACT: 0.00528
CCGATACC: -0.182
CACCGAAA: -0.0884
CGCGTATC: -0.0901
AAGCATAA: 0.238
ACCCTTAA: 0.0868
AAGTGTAC: 0.177
ACCGCACA: -0.217
CCCAACGG: -0.291
ACTAATAA: 0.379
GCGTGCCA: -0.314
GCCCCAGA: -0.351
CATTCTCC: 0.034
ACCTCGAC: -0.0149
CTACATAG: 0.162

Series 4
Target: RNA binding protein fox-1 homolog 2, RRM domain, GST-SBP tag (RBFOX2, Homo sapiens, UniProt O43251-10, residues 100-194)
Method: RNA Bind-n-Seq
Molecule type: RNA
Sample: in vitro
Tested at: 365 nM
Notes: natural RNA segment, single round, ends assumed
Reference: no-protein control
Reading: higher = stronger binding
Measurement: RBNS enrichment (R)
Residues (chain): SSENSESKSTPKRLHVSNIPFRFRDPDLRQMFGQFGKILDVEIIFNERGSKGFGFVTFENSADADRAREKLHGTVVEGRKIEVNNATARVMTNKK
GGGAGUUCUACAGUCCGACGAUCAAAAAAAUGGAGUUGUUUUGGGUGGUAAAGUGUUAAGGAAUAGGGACAGCUGGUCACACAAGGAACUCUUGAAGGCCACAUGUGAAAACCUGUCACUUGCACAGAGGCCAUGGAAUUCUCGGGUGCCAA: 0.497
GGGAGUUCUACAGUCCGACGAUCCUCAUCUAUAACAUGCAUUUGUCUUUGUAAUGUCACCACCUUCCCAGCUCUCCCUCUGGCCCUGCCUUCUUCGGGGAACUCCUGGAAAUAUCAGUUACUCAGCCCUGGGCUGGAAUUCUCGGGUGCCAA: 0.653
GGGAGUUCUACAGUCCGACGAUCUGGAGUAUUUGCUUCUUUUGUUCGCGCAGACAUGUGAAGGAGUGUCUUAAAACAAUACAUGUAUUUAAAAUAAUGCAGUCAUAACCUAAUUAAUGGAUCAUCAGCUUGACUGGAAUUCUCGGGUGCCAA: 0.494
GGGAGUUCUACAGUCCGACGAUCCAGGUUAAGUGUGAGUAAUCUGAGAAACAAUGACUAAUUCUUGCAUAUUUUGUAACUUCCAUGUGAGGGUUUUCAGCAUUGAUAUUUGUGCAUUUUCUAAACAGAGAUGAUGGAAUUCUCGGGUGCCAA: 8.4
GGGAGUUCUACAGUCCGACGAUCUUUUCCAUGUGUCAAAAAUCUCAUCACCCCACUUGCCUAAUUAGAGUAACCCAGCCCCUAAAUUUACAUAGAUUGACUAUUCAUAUGCUCUAACUACUUAUAAUAGUUUAUGGAAUUCUCGGGUGCCAA: 1.36
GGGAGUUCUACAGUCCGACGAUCCCUGUGAAGACCCCCAGGCUUUGUCAUAGGAGGUCGUUCAGCUUCCCCAAAGUCAGAGGUGAUUUGAUUUGGGGAAGACUGAAUAUUCACACCUAAGUCGUGAGCAUAUCUGGAAUUCUCGGGUGCCAA: 0.224
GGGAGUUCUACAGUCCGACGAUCUGCCUUUUAGUGGAGACCUGCAGGCAAGCCUUUGGCCCACUGAUCACUGCCUUUCCCCCUCCACCGAGGGCUAUUGGCUGACAAAGCCCCUUCCUGGCCUCACAACCACCUGGAAUUCUCGGGUGCCAA: 0.289
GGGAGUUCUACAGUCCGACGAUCAUCAAUCUAUAUUUAAUUCAGUUCAGUGGCAUUCAUUAAGGAUGAAUUAAUCACUAUAGGAUUAAGCCUUUAUCCUAUAGUGUCCAGUUUUUCUCUACUUCUGAAAUGAGUGGAAUUCUCGGGUGCCAA: 0.378
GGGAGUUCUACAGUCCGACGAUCCUCAUGGGAAGAAAACUGUACACACUGAACGCAUAGCCCGCUUAGAGAUCACAUCGCCUCUUAGAGACCAUGUCACCUCCUAUCUGUCACCCUUCCUCUUCCUGUCACAGUGGAAUUCUCGGGUGCCAA: 0.292
